Measured values of several laboratories.
Numbers after ± are the reported error.
PHO4: PHO4 1-312 (Saccharomyces cerevisiae, UniProt P07270)
Sequence of UniProt P07270 (whole entry, looked up): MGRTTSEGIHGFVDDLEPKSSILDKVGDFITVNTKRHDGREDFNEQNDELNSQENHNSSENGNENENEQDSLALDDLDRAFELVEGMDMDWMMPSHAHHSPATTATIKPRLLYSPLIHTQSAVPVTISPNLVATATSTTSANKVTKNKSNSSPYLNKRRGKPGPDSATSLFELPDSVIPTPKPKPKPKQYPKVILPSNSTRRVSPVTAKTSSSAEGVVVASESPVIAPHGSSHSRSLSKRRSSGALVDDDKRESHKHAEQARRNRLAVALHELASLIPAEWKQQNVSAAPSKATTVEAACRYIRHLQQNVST
U2AF2: U2AF2 148-342 (Homo sapiens, UniProt P26368)
Sequence of UniProt P26368 (whole entry, looked up): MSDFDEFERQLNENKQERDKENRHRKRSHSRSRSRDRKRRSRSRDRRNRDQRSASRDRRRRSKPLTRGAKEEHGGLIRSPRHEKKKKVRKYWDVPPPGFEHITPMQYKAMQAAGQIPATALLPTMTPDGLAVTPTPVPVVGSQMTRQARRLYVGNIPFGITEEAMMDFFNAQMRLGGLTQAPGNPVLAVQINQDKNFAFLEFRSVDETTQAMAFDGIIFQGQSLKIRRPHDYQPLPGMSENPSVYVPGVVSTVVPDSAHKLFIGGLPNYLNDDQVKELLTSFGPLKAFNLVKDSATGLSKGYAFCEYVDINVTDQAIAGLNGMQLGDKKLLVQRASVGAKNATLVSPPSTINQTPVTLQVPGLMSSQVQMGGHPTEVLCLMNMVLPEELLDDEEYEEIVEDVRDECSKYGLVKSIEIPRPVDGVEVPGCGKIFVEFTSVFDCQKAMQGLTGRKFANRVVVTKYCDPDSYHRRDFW
TGM2: TGM2 2-687 (Homo sapiens, UniProt P21980)
Sequence of UniProt P21980 (whole entry, looked up): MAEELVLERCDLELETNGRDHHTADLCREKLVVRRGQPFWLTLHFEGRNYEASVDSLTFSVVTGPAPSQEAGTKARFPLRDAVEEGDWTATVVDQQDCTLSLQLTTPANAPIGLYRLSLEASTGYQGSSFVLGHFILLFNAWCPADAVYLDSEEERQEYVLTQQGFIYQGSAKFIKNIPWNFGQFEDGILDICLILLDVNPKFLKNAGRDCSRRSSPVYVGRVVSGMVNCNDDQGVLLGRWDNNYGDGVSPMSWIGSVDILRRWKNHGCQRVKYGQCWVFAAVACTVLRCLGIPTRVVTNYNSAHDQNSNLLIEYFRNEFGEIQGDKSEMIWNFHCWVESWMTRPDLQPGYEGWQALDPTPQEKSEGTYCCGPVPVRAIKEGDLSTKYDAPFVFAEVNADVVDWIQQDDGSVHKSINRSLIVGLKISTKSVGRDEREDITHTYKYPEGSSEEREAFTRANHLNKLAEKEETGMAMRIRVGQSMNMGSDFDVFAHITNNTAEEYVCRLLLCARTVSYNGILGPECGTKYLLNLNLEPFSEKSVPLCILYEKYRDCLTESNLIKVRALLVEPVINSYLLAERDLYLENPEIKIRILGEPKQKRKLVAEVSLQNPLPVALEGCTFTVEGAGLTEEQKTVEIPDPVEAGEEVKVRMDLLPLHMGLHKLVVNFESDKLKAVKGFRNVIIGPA
TOA1/TOA2 1-286; 1-122: TOA1/TOA2 1-286; 1-122 (Saccharomyces cerevisiae)
SPT15 full length assumed: SPT15 full length assumed (Saccharomyces cerevisiae, UniProt P13393)
Sequence of UniProt P13393 (whole entry, looked up): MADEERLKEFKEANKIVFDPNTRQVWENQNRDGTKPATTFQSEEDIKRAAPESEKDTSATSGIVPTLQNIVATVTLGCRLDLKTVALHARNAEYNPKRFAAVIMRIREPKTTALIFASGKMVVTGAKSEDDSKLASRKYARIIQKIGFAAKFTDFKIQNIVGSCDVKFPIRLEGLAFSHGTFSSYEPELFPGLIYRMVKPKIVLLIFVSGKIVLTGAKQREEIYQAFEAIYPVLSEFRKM
APOBEC3A full length assumed E72A: APOBEC3A full length assumed E72A (Homo sapiens, UniProt P31941)
T1: TOA1/TOA2 1-286; 1-122 (Saccharomyces cerevisiae); chain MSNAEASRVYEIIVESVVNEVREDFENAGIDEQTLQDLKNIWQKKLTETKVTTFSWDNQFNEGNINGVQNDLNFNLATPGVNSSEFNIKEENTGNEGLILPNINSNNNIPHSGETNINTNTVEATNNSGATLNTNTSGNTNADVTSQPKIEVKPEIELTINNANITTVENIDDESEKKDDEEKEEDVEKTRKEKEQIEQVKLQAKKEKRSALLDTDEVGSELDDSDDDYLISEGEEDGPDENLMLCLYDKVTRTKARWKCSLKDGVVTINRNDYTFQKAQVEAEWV; chain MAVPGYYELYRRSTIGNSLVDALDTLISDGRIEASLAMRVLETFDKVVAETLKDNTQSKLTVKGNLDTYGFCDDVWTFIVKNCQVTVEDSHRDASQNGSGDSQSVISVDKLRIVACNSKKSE
Sequence of UniProt P17106 (whole entry, looked up): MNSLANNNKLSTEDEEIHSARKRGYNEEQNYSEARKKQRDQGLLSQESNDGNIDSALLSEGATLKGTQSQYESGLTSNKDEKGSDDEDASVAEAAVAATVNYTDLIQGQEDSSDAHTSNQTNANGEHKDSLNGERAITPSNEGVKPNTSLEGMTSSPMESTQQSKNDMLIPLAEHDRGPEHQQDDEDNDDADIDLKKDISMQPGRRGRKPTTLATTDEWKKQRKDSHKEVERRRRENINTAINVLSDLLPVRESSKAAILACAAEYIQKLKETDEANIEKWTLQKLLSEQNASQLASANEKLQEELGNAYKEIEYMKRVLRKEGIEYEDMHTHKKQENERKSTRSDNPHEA

| Strand | target | test | system | setting | how to read | endpoint | result |
| --- | --- | --- | --- | --- | --- | --- | --- |
| CAATACACTGTTATCAGACACACGTGTCGAGCTACTCGTTCGGTTATCCGGCGGTATGAC (dsDNA) | PHO4 | MITOMI | double-stranded DNA, one strand shown | not purified |  | Kd | 151 ± 3 nM |
| GGAACGAUACAGAGAAGAUUAG (ssRNA) | SART3 671-877 K841A (Homo sapiens, UniProt Q15020) | fluorescence polarization | RNA |  | reference: RRM1-2, higher = weaker binding | fold affinity decrease | 2.2 fold |
| CAUUUUAGU (ssRNA) | U2AF2 | sequencing of bound RNA | RNA | motif only |  | Kd | 3060 nM |
| GGGAGCAGGAGAGAGGUCAGAUGAACGAGAGAUGGUAGGCCUCGCCUUCUAAACCUAUGCGUGCUAGUGUGA (ssRNA; 2'-fluoro pyrimidines) | TGM2 | SPR | RNA | added: MgCl2 5 mM | higher = more binding | relative binding | 211 RU |
| AGUUUUAAG (ssRNA) | U2AF2 | sequencing of bound RNA | RNA | motif only |  | Kd | 3360 nM |
| TGGATCAATCGAGAATTCCGCGCAAGTGGTATGGATCAAGTCAATCGGTCC (dsDNA; 5'-amino-C6 primer) | T1, TOA1/TOA2 1-286; 1-122 (Saccharomyces cerevisiae) | array | double-stranded DNA, one strand shown | TFIIA alone |  | Kd | 46.1 ± 10.8 nM |
| AGCGTAGCACTGGGCT (dsDNA) | protein full length assumed D348A (Bacillus pumilus, UniProt A3FMN7) | EMSA | double-stranded DNA, one strand shown |  |  | binding | no binding |
| GCUUUCCCU (ssRNA) | U2AF2 | sequencing of bound RNA | RNA | motif only |  | Kd | 2590 nM |
| GGGTTGCGGCCGCTTGGG (dsDNA; blunt, 5'-phosphate) | PARP1 full length assumed W589A (Homo sapiens, UniProt P09874) | stopped-flow fluorescence anisotropy | double-stranded DNA, one strand shown |  | reference: wild type, lower = weaker affinity | relative affinity | 1.6 fold |
| UGUUACGGU (ssRNA) | U2AF2 | sequencing of bound RNA | RNA | motif only |  | Kd | 1090 nM |
| GGGAGCAGGAGAGAGGUCAGAUGACACACGAGAGAUGUUGCCUGCUACCCACACCUAUGCGUGCUAGUGUGA (ssRNA; 2'-fluoro pyrimidines) | TGM2 | SPR | RNA | added: MgCl2 5 mM | higher = more binding | relative binding | 106 RU |
| ATTCCAGTATGGCGTATAAATAAAGGCGAGGAGAATCAAGTCAATCGGTCC (dsDNA; 5'-amino-C6 primer) | SPT15 full length assumed | array | double-stranded DNA, one strand shown | TBP alone |  | Kd | 5.05 ± 0.31 nM |
| AAUUUUAAU (ssRNA) | U2AF2 | sequencing of bound RNA | RNA | motif only |  | Kd | 12400 nM |
| GGGAGCAGGAGAGAGGUCAGAUGAAACGAGAGAUGUAGCCUUUCUCGAAUUCACCUAUGCGUGCUAGUGUGA (ssRNA; 2'-fluoro pyrimidines) | TGM2 | SPR | RNA | added: MgCl2 5 mM | higher = more binding | relative binding | -7.7 RU |
| CTGCTCCGTCCGCCTTCGAGGAGAGGTCGGCATCTTCAAGTCAATCGGTCC (dsDNA; 5'-amino-C6 primer) | SPT15 full length assumed | array | double-stranded DNA, one strand shown | TBP alone |  | Kd | 13.8 ± 0.97 nM |
| GGGAGCAGGAGAGAGGUCAGAUGAACAAGAGAUGGUAGGCCUACGUAAUGUUUCCUAUGCGUGCUAGUGUGA (ssRNA; 2'-fluoro pyrimidines) | TGM2 | SPR | RNA | added: MgCl2 5 mM | higher = more binding | relative binding | 128 RU |
| UUCUAAGCU (ssRNA) | U2AF2 | sequencing of bound RNA | RNA | motif only |  | Kd | 2470 nM |
| ATTATGUCGTTGGATTTA (ssDNA; single-stranded, dU at 7) | APOBEC3A full length assumed E72A | competitive fluorescence polarization | single-stranded DNA |  |  | IC50 | 500 ± 40 nM |

| Strand | target | test | system | setting | how to read | endpoint | result |
| --- | --- | --- | --- | --- | --- | --- | --- |
| CAATACACTGTTATCCGACACACGTGTCGAGCTACTCGTTCGGTTATCCGGCGGTATGAC (dsDNA) | PHO4 | MITOMI | double-stranded DNA, one strand shown | not purified |  | Kd | 121 ± 3 nM |
| UUACACGAA (ssRNA) | U2AF2 | sequencing of bound RNA | RNA | motif only |  | Kd | 650 nM |
| GGAAGTGACGTACGTCGTGCACACGTGGTCCGGCGTCAAGTCAATCGGTCC (dsDNA; 5'-amino-C6 primer) | SPT15 full length assumed | array | double-stranded DNA, one strand shown | TBP alone |  | Kd | 6.89 ± 0.46 nM |
| ATTATGTCGTTGGATTTATTT (ssDNA; single-stranded) | APOBEC3A full length assumed E72A | competitive fluorescence polarization | single-stranded DNA |  |  | IC50 | 430 ± 30 nM |
| CAATACACTGTTATCAGACACAGCTGTCGAGCTACTCGTTCGGTTATCCGGCGGTATGAC (dsDNA) | PHO4 | MITOMI | double-stranded DNA, one strand shown | not purified |  | Kd | 1230 ± 112 nM |
| GTTCCTGAAGGGGGGGCTATAAACGGGGGTGGGGGTCAAGTCAATCGGTCC (dsDNA; 5'-amino-C6 primer) | SPT15 full length assumed | array | double-stranded DNA, one strand shown | TBP alone |  | Kd | 1.03 ± 0.04 nM |
| CAATACACTGTTATCAGACACACGTGTCGATCTACTCGTTCGGTTATCCGGCGGTATGAC (dsDNA) | PHO4 | MITOMI | double-stranded DNA, one strand shown | not purified |  | Kd | 139 ± 4 nM |
| TCCTGAAGGGGAGCCCTAGCTTGGTCCTATCGTCGTCAAGTCAATCGGTCC (dsDNA; 5'-amino-C6 primer) | T1, TOA1/TOA2 1-286; 1-122 (Saccharomyces cerevisiae) | array | double-stranded DNA, one strand shown | TFIIA alone |  | Kd | 32.7 ± 7.14 nM |
| GGGAGCAGGAGAGAGGUCAGAUGUUAGGAGUUACGAGAGAUGUGGCAUGUGACCUAUGCGUGCUAGUGUGA (ssRNA; 2'-fluoro pyrimidines) | TGM2 | SPR | RNA | added: MgCl2 5 mM | higher = more binding | relative binding | 210 RU |
| CAATACACTGTTATCAGACACACGTGTCGCGCTACTCGTTCGGTTATCCGGCGGTATGAC (dsDNA) | CBF1 1-351 (Saccharomyces cerevisiae, UniProt P17106) | MITOMI | double-stranded DNA, one strand shown | not purified |  | Kd | 184 ± 10 nM |
| GGGAGCAGGAGAGAGGUCAGAUGGUACUUUAGACAACUGAGGGUUCUCUUAUUCCUAUGCGUGCUAGUGUGA (ssRNA; 2'-fluoro pyrimidines) | TGM2 | SPR | RNA | added: MgCl2 5 mM | higher = more binding | relative binding | 134 RU |
| UGUGGCUCC (ssRNA) | U2AF2 | sequencing of bound RNA | RNA | motif only |  | Kd | 4860 nM |
| ATTATGTCGTTGGATTTA (ssDNA; single-stranded) | APOBEC3A full length assumed E72A | competitive fluorescence polarization | single-stranded DNA |  |  | IC50 | 400 ± 40 nM |
| TCCTGAAGGGGCACCTATAAAAGGTCCTATCGTCGTCAAGTCAATCGGTCC (dsDNA; 5'-amino-C6 primer) | SPT15 full length assumed | array | double-stranded DNA, one strand shown | TBP alone |  | Kd | 1.81 ± 0.06 nM |
| GGGAGCAGGAGAGAGGUCAGAUGUUUAGGUAUUACGAGAGAUGUGGAUAUCGACCUAUGCGUGCUAGUGUGA (ssRNA; 2'-fluoro pyrimidines) | TGM2 | SPR | RNA | added: MgCl2 5 mM | higher = more binding | relative binding | 38.1 RU |
| GTTCCTGAAGGGGGGGCTATAAAACGGGGTGGGGGTCAAGTCAATCGGTCC (dsDNA; 5'-amino-C6 primer) | SPT15 full length assumed | array | double-stranded DNA, one strand shown | TBP alone |  | Kd | 0.66 ± 0.02 nM |
| GGGAGCAGGAGAGAGGUCAGAUGAACAAGAGAUGGUAGGCCUAACCAUGCUUUCCUAUGCGUGCUAGUGUGA (ssRNA; 2'-fluoro pyrimidines) | TGM2 | SPR | RNA | added: MgCl2 5 mM | higher = more binding | relative binding | 82.2 RU |

Some of these lines once more:
| Strand | target | test | system | setting | how to read | endpoint | result |
| --- | --- | --- | --- | --- | --- | --- | --- |
| UGUGGCUCC (ssRNA) | U2AF2 | sequencing of bound RNA | RNA | motif only |  | Kd | 4860 nM |
| ATTATGTCGTTGGATTTA (ssDNA; single-stranded) | APOBEC3A full length assumed E72A | competitive fluorescence polarization | single-stranded DNA |  |  | IC50 | 400 ± 40 nM |
| TCCTGAAGGGGCACCTATAAAAGGTCCTATCGTCGTCAAGTCAATCGGTCC (dsDNA; 5'-amino-C6 primer) | SPT15 full length assumed | array | double-stranded DNA, one strand shown | TBP alone |  | Kd | 1.81 ± 0.06 nM |
| GGGAGCAGGAGAGAGGUCAGAUGUUUAGGUAUUACGAGAGAUGUGGAUAUCGACCUAUGCGUGCUAGUGUGA (ssRNA; 2'-fluoro pyrimidines) | TGM2 | SPR | RNA | added: MgCl2 5 mM | higher = more binding | relative binding | 38.1 RU |
| GTTCCTGAAGGGGGGGCTATAAAACGGGGTGGGGGTCAAGTCAATCGGTCC (dsDNA; 5'-amino-C6 primer) | SPT15 full length assumed | array | double-stranded DNA, one strand shown | TBP alone |  | Kd | 0.66 ± 0.02 nM |
